Measured values gathered from unrelated publications.
Each line is one published result; not all experiments were run side by side.
TEK: Angiopoietin-1 receptor (TEK, Homo sapiens, UniProt Q02763)
Sequence of UniProt Q02763 (whole entry, unmodified, looked up): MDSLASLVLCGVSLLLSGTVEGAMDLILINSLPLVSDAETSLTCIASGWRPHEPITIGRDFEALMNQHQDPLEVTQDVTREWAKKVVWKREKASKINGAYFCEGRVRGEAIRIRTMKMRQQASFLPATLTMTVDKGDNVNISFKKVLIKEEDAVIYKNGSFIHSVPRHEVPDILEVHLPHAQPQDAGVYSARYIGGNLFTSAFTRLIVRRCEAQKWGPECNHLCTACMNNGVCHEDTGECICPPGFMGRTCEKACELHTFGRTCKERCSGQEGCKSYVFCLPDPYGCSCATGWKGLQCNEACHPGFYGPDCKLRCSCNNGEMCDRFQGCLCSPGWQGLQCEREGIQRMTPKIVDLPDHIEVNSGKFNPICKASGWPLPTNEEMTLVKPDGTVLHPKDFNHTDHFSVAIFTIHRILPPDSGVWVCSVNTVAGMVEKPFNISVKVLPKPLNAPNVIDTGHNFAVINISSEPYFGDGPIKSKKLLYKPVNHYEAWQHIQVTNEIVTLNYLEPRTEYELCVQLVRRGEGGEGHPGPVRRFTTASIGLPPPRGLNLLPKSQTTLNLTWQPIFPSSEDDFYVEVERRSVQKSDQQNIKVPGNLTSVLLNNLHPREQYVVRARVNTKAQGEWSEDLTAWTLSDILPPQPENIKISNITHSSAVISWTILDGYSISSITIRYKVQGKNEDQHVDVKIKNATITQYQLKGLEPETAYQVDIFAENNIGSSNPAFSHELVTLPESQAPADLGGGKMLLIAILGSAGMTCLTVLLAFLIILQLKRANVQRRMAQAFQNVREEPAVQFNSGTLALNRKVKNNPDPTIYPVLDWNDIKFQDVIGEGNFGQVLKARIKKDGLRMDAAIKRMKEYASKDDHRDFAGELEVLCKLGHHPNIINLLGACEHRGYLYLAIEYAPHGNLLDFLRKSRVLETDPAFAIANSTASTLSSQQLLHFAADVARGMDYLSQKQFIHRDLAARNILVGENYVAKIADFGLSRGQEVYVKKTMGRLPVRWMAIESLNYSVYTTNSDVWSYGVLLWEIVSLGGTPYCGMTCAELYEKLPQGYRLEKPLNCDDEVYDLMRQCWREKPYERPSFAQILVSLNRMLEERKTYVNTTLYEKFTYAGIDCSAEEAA
TEK Y897S: Angiopoietin-1 receptor (TEK, Homo sapiens, UniProt Q02763, Y897S)

| Structure (SMILES) | target | assay | setting | how to read | endpoint | result |
| --- | --- | --- | --- | --- | --- | --- |
| C[C@H](NCc1ccc(-c2ccc(C(F)(F)F)cc2)cc1)C(N)=O | TEK | cell-free assay, competition with immobilised ligand | 1 µM | – | inhibition | 5% |
| Nc1ccc(/C=C/C(=O)N2CCc3c(oc4c(-c5ccc(F)cc5)cc(-c5ccc(C(=O)N6CCC(F)(F)CC6)cn5)cc34)C2)cn1 | TEK | binding, competition with immobilised ligand | 1 µM | – | remaining binding | 81% |
| CCOC(=O)[C@@H]1Cc2c(cc([N+](=O)[O-])cc2[N+](=O)[O-])[C@H](O)[C@]12C(=O)Nc1ccc(Br)cc12 | TEK | binding, competition with immobilised ligand | 0.1 µM | – | remaining binding | 98% |
| CS(C)(=O)=Nc1ccc(-c2ccc(-c3nc4cc(O[C@@H]5CO[C@H]6[C@@H]5OC[C@H]6O)[nH]c4cc3F)cc2)cc1 | TEK Y897S | enzyme activity, inhibitor | 10 µM | – | inhibition | -24% |
| N[C@H](C(=O)N1CCCC1)C1CCN(c2nccc3c(-c4ncc(Cl)cc4Cl)cccc23)CC1 | TEK | kinase activity, inhibitor | 10 µM, together with: ATP 1 mM | – | inhibition | 7.1% |
| CCn1nc(Cl)c2c1-c1cnc(N)c(c1)O[C@H](C)c1cc(F)ccc1-c1nn(C)cc1C2 | TEK | kinase activity, inhibitor | – | baseline: IC50 TEK over IC50 ALK | selectivity ratio | 162 fold |
| CC(C)[C@H]1NC(=O)C[C@H]2/C=C/CCSSC[C@@H](NC1=O)C(=O)N[C@H](Cc1cccc3ccccc13)C(=O)NCC(=O)O2 | TEK | enzyme activity, inhibitor | 10 µM | – | inhibition | 7.7% |
| O=C1NC(=O)c2c1c1cc(F)c[n+]3c1c1c2c2cc(O)ccc2[n]1[Ru-4]312([N]=C=S)[S+]3CC[S+]1CC[S+]2CC3 (centres unmarked) | TEK Y897S | enzyme activity | 100 nM, human enzyme, together with: 10 µM ATP | baseline: untreated | remaining activity | 100% |
